Results pooled from the literature.
A part holds a random share of what one study measured.

Study 1 — method: two-hybrid; notes: weak activation fusion; relative to: out of 4 tests; direction: higher = firmer interaction
Partner: ARF9 519-638 (Arabidopsis thaliana, UniProt Q9XED8)
B1: ARF1 538-665 (Arabidopsis thaliana, UniProt Q8L7G0); chain SRQIRSCTKVHMQGSAVGRAIDLTRSECYEDLFKKLEEMFDIKGELLESTKKWQVVYTDDEDDMMMVGDDPWNEFCGMVRKIFIYTPEEVKKLSPKNKLAVNARMQLKADAEENGNTEGRSSSMAGSR
B2: ARF5 788-902 (Arabidopsis thaliana, UniProt P93024); chain ATPRVRTYTKVQKTGSVGRSIDVTSFKDYEELKSAIECMFGLEGLLTHPQSSGWKLVYVDYESDVLLVGDDPWEEFVGCVRCIRILSPTEVQQMSEEGMKLLNSAGINDLKTSVS
B3: IAA34 (Arabidopsis thaliana, UniProt Q9C5X0); chain MYCSDPPHPLHLVASDKQQKDHKLILSWKKPTMDSDPLGVFPNSPKYHPYYSQTTEFGGVIDLGLSLRTIQHEIYHSSGQRYCSNEGYRRKWGYVKVTMDGLVVGRKVCVLDHGSYSTLAHQLEDMFGMQSVSGLRLFQMESEFCLVYRDEEGLWRNAGDVPWNEFIESVERLRITRRNDAVLPF
B4: ARF6 790-935 (Arabidopsis thaliana, UniProt Q9ZTX8); chain SENPQSNTFVKVYKSGSFGRSLDISKFSSYHELRSELARMFGLEGQLEDPVRSGWQLVFVDRENDVLLLGDDPWPEFVSSVWCIKILSPQEVQQMGKRGLELLNSAPSSNNVDKLPSNGNCDDFGNRSDPRNLGNGIASVGGSFNY
B5: ARF2 727-859 (Arabidopsis thaliana, UniProt Q94JM3); chain TKTNSSRSCTKVHKQGIALGRSVDLSKFQNYEELVAELDRLFEFNGELMAPKKDWLIVYTDEENDMMLVGDDPWQEFCCMVRKIFIYTKEEVRKMNPGTLSCRSEEEAVVGEGSDAKDAKSASNPSLSSAGNS
Construct (chain): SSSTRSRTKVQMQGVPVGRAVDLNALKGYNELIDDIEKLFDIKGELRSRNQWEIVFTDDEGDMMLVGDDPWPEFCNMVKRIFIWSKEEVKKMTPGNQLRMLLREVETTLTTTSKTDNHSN
Sequence	positive tests
B1 (ARF1 538-665)	0
B2 (ARF5 788-902)	1
B3 (IAA34)	4
B4 (ARF6 790-935)	2
B5 (ARF2 727-859)	0

Study 2 — method: EMSA with sequencing; molecule type: double-stranded DNA, one strand shown; sample: in vitro; concentration: 10 and 20 nM; relative to: negative control set to 0; direction: higher = stronger binding
Target: Hepatocyte nuclear factor 3-alpha (Foxa1, Mus musculus, UniProt P35582, residues 1-468, full length assumed)
Notes: whole designed probe, mean of two concentrations, ends assumed
Target sequence (chain): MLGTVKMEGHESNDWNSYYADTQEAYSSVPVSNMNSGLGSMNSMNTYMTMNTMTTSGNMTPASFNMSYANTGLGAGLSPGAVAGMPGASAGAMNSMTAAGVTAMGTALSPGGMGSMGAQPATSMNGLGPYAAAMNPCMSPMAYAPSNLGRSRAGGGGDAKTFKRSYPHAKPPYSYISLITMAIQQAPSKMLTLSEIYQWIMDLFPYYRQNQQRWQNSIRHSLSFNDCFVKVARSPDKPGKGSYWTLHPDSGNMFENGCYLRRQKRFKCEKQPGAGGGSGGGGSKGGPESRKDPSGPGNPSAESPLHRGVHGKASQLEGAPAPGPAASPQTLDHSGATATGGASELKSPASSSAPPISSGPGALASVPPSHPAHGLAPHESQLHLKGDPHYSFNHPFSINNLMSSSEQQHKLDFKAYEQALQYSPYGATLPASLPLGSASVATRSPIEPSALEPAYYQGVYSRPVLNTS
Sequence	normalised bound fraction [ratio]
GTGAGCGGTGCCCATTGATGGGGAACTTGAGTATAGACCCAATAATAGGATTGTTGGGTCAAATTTCTGTTTTTAGCTCTTTGAAGAAGCGCCACATTTCTTCCCACAATGGTTGAACTAAATTACACACCTGCCAAGACTGTGTAAGTGTTCTCTTTTCTCCACAACCTCTCCAGCATCTTTTATTTTTTGACTTTTTTTGTGTGTTCTACTTTGTTATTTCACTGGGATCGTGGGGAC	0.024
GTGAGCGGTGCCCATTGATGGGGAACTACTTCTTTCCTTTAACATATGGCATTTGCTTAACCTCTTGGAGAGTTGTGGTTTTCTGACCCTGGAGTTCTGATGGGAAAGATAATGAGAAGAGATTACTTAGCATCTAGGCCAGCAAGCTAAGAAAAACATTGTGCCATGCTAGTATTGACAAGGTGACAGAGAGCCCACACTTGCCTCACATGTTGGCCATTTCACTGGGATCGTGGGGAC	0.00998
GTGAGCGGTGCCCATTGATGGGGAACGAGAACTTTTTTCATATAATTATTTTAAAAATTGTTTTATTCTTAAAGCAATTGATATTATCTACTAAAAAATTTTTAGTAGTGAAATGACATGTTTACATTGTCTTTAGAAAAATACTTCTAGCAATGTGAAGTTCAATGAGAAAGATATACACATAAATATTGTATTTTGTTTCTCTTGGTTTATGTGTATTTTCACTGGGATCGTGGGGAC	0.324
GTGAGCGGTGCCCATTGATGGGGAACACTGCTCCTGCAAAGCCATGCGCTCCAGTGGAATTTACAAGAATGTGAAAGTTCAGCAATACTAAAATTATCTCTCACTTCCTATAGATTAGCTTGTTTACTTTGAGATTTCCTTAAAATTCGACCCCCAAGTTGACTTGGCTAACCTTTCTACCATTTACTCAGCTTGAAAGTTTATGCCATATCTCGAAACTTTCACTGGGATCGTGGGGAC	0.244
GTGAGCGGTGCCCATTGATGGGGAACATCTTCCCCCTCTTCCTTGCCCCACCAGCTCACCTACGGGGGTTATTTGCACAAAGGAAAATAAATAAAGCCGGCATTCGTTAACGCAGTTCTGGCGCAAACTGCTGTTTGCTCTGCATGAATCATGGTCCTTACGCGAGGCGTGGCTCCGGGAGAGCAAAGCACCGTGTCAGGCGCATGATCCGGGGTGGCCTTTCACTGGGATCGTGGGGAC	0.393

Study 3 — method: aptamer microarray, sandwich; molecule type: DNA with 2'F-ANA; sample: in vitro; concentration: 200 nM; added: Cy3 exosite-II aptamer, 400 nM; direction: higher = stronger binding; sequence: GGTTGGTGTGGTTGG
Target: Prothrombin, mature alpha-thrombin (F2, Homo sapiens, UniProt P00734)
Notes: whole 15-mer aptamer, many near background
Modification	mean fluorescence intensity
2'F-ANA at 2 5 8 9 10 11 13 14 15	54.7 a.u.
2'F-ANA at 1 5 7 9 10 11 12	52.1 a.u.
2'F-ANA at 3 5 6 8 9 12	297 a.u.
2'F-ANA at 1 2 6 8 10 11 12 13 14	49.5 a.u.
2'F-ANA at 2 6 9 11 12 13 15	380 a.u.
2'F-ANA at 2 3 4 6 8 10 15	211 a.u.
2'F-ANA at 1 5 8 9 10 12 13 15	46.9 a.u.
2'F-ANA at 1 3 4 6 7 10 11 12 13 14	59.7 a.u.

Mixed results
SMILES	species	sample	concentration	time	quantity	value
COC(C(=O)Nc1ccc(S(=O)(=O)Nc2cccc(Cl)c2Cl)cc1)c1ccccc1 (stereo not shown)	human	microsomes or S9	2 µM	0.5 h	remaining compound	51.1%

Some of these lines once more (study 1):
Sequence	positive tests
B5 (ARF2 727-859)	0
B1 (ARF1 538-665)	0
